Experimental data collected from several papers.
Each line is one published result; not all experiments were run side by side. Several values in a cell are separate wells, animals, samples, runs or records. Numbers after ± are the reported error.

SMILES	test	system	conditions	scale	quantity	result
O=C1[O][Pt]2([NH][C@@H]3CCCC[C@H]3[NH]2)[O]C1=O	AUC-based, measured: platinum	BALB/c mice, CT26 tumour	iv	reference: tumour over kidney	tumour to organ ratio	0.4
Cc1noc(C)c1Cn1cc(N2C(=O)CN(Cc3cccc(O)c3)C2=O)cn1	–	CD-1 mouse, male, bone marrow	500 mg/kg/day, 24 h	–	PCE proportion	52.6%
COc1cc2c(Oc3ccc4[nH]c(C)cc4c3F)ccnc2cc1OCC1(N)CC1	–	paediatric recurrent refractory sarcoma	12 mg	–	grade 3 Hypothyroidism	0%
Clc1ccc(-c2ccccc2)cc1	–	rat Sprague-Dawley female, serum	inhalation, 35 µg/rat, 24 h	–	serum Triglycerides	48 ± 11 mg/dL
C[C@@H]1NC(=O)[C@H](CCCCNC(=O)CO/N=C/C(=O)NCCCC[C@@H]2NC(=O)[C@@H](Cc3ccccc3)NC(=O)[C@H](CC(=O)O)NC(=O)CNC(=O)[C@H](CCCNC(=N)N)NC2=O)NC(=O)CNC(=O)[C@@H]2CCCN2C(=O)[C@H](CCCCNC(=O)CO/N=C/C(=O)NCCCC[C@@H]2NC(=O)[C@@H](Cc3ccccc3)NC(=O)[C@H](CC(=O)O)NC(=O)CNC(=O)[C@H](CCCNC(=N)N)NC2=O)NC(=O)[C@H](CCCCNC(=O)[C@H](CCCCN)NC(=O)[C@H](Cc2ccccc2)NC(=O)CNC(=O)CN2CCCNCCNCCCNCC2)NC(=O)[C@H](CCCCNC(=O)CO/N=C/C(=O)NCCCC[C@@H]2NC(=O)[C@@H](Cc3ccccc3)NC(=O)[C@H](CC(=O)O)NC(=O)CNC(=O)[C@H](CCCNC(=N)N)NC2=O)NC(=O)CNC(=O)[C@@H]2CCCN2C(=O)[C@H](CCCCNC(=O)CO/N=C/C(=O)NCCCC[C@@H]2NC(=O)[C@@H](Cc3ccccc3)NC(=O)[C@H](CC(=O)O)NC(=O)CNC(=O)[C@H](CCCNC(=N)N)NC2=O)NC1=O [copper-64 labelled]	biodistribution after PET	mouse, U-87 MG tumour xenograft, blood	intravenous, 24 h	–	tissue uptake	0.09 ± 0.01 %ID/g
O=S(=O)(Nc1ccccc1)c1ccc(NC(=S)Nc2ccccc2)cc1	measured: ALT	female mouse, blood	oral, 5 mg/kg daily, 14 days	–	serum enzyme activity	72 U/L
O=C1Nc2cc3[nH]nc(-c4ccncc4)c3cc2CN1Cc1ccccc1	CTCAE v4.03	advanced solid tumour patients	intravenous, 4.8 mg/kg, schedules 1/2	–	patients with decreased appetite	25%
C[C@]1(CO)Cc2ncn(-c3ccc(C#N)c(Cl)c3)c2C(=O)O1	–	human	oral, 10 mg, fasted, single dose, geometric mean	–	Cmax	432 nM
CCS(=O)(=O)Nc1ccc(Oc2ccc(F)cc2F)c(-c2cn(C)c(=O)c3[nH]ccc23)c1	parainfluenza infection leading to discontinuation	human, relapsed/refractory AML	oral, dose not given	–	treatment-emergent adverse events	0%
CC(C)(O)c1cc(Nc2cc(Oc3cn(C4CC4)nc3C3CCOCC3)ccn2)ccn1	Diarrhea	advanced cancer patients, dose escalation	oral, dose not given, 2 weeks on/off, all causality grade ≥3	–	treatment-emergent adverse events	0%
COc1ccnc(C(=O)N[C@H]2COC(=O)[C@H](Cc3ccccc3)[C@@H](OC(=O)C(C)C)[C@H](C)OC2=O)c1OCOC(=O)C(C)C	–	rabbit, both sexes	from urine, rinse, air	–	oral absorption	42%
CCC[C@@](N)(CO)CCc1ccc(OCCCCCC(C)C)cc1	–	male hound dog, plasma	oral, 20 mg/kg, capsule, fasted, geometric mean	–	AUC(0-t)	15.5 µM·h
CO[C@H]1C[C@@H]2CC[C@@H](C)[C@@](O)(O2)C(=O)C(=O)N2CCCC[C@H]2C(=O)O[C@H]([C@H](C)C[C@@H]2CC[C@@H](OC(=O)NCCOCCOCCOCCOCCOCCOCCOCCOCCC(=O)N3CCc4cc(Cn5nc(-c6ccc7oc(N)nc7c6)c6c(N)ncnc65)ccc4C3)[C@H](OC)C2)C[C@@H](O)[C@H](C)/C=C(\C)[C@@H](O)[C@@H](OC)C(=O)[C@H](C)C[C@H](C)/C=C/C=C/C=C/1C	–	patients with advanced solid tumours	intravenous, 1.6 mg/3 mg weekly, any grade	–	incidence of Headache TEAE	20%
CN1CC[C@@H](c2c(O)cc(O)c3c(=O)cc(-c4ccc(C(F)(F)F)cc4Cl)oc23)[C@@H]1CO	measured: Chills	AML	oral, 100 mg, intermittent dosing	–	patients with adverse event	0%
NCCCC[C@@H]1NC(=O)[C@@H](Cc2c[nH]c3ccccc23)NC(=O)[C@H](c2ccccc2)NC(=O)[C@@H]2C[C@@H](OC(=O)NCCN)CN2C(=O)[C@H](Cc2ccccc2)NC(=O)[C@H](Cc2ccc(OCc3ccccc3)cc2)NC1=O	–	healthy volunteers, male	1950 µg twice daily, 8.0 h, post hoc	–	placebo-corrected QTcF change	5.5 ms
CC(C)[C@@H]1NC(=O)CNC(=O)[C@H](CC(N)=O)NC(=O)[C@H](CCCNC(=N)N)NC(=O)[C@H](Cc2ccc(O)cc2)NC(=O)[C@H](C(C)C)NC(=O)[C@@H](NC(=O)[C@@H](NC(=O)[C@H](CC(N)=O)NC(=O)[C@H](Cc2c[nH]c3ccccc23)NC(=O)[C@H](C)NC(=O)[C@H](Cc2ccccc2)NC(=O)CN)C(C)C)CSSC[C@@H](C(=O)N[C@@H](Cc2cnc[nH]2)C(=O)N[C@@H](CCCNC(=N)N)C(=O)N[C@@H](CCCNC(=N)N)C(=O)N[C@@H](C)C(=O)N[C@@H](CC(N)=O)C(N)=O)NC(=O)[C@H](C(C)C)NC(=O)[C@H](CCCNC(=N)N)NC1=O	HPLC	trypsin	2560 µM, 2.00 h, together with: trypsin 1 % w/v	–	remaining peptide	19.1% and 22.1% and 17.8%
Cn1ncc(-c2nc(N[C@H]3CC[C@H](N)CC3)ncc2Cl)c1CC1CC1	measured: diarrhea any grade	human patients phase I	dose not given	–	adverse event incidence	40%
O.O.O.O.O.O.[Cl-].[Cl-].[Co+2]	–	rat female, urine	oral, 10 mg/kg single, day 2	–	cobalt in urine	411 µg/L
CCc1ccc(CC/C=C/c2ccc3c(c2)C(=O)CC3)cc1	–	Sprague-Dawley rat, female	oral, 120 mg/kg/day, 14 days	–	Lymphocyte percentage	80%
CC(C)=CC1C(C(=O)OC(C#N)c2cccc(Oc3ccccc3)c2)C1(C)C (stereo not drawn)	measured: CYP2C9	human, age 5 years	–	–	enzyme contribution to clearance	7.49%
N.N.[Cl][Pt][Cl]	–	mouse, serum	dose not given	–	ALT	34 IU/L and 59 IU/L and 57 IU/L
CC(C)C(=O)OC[C@H]1O[C@@H](n2ccc(NO)nc2=O)[C@H](O)[C@@H]1O	–	rat fetus dialysate	5 ng/mL, 6 h, 10 °C, low QC concentration, together with: NHC 25 ng/mL	–	autosampler stability	99.4 ± 2.38%
CN[C@@H](C)C(=O)N[C@H]1CN(S(=O)(=O)c2cccc(S(=O)(=O)N3CC[C@H]4CC[C@@H](C(=O)NC(c5ccccc5)c5ccccc5)N4C(=O)[C@@H](NC(=O)[C@H](C)NC)C3)c2)CC[C@H]2CC[C@@H](C(=O)NC(c3ccccc3)c3ccccc3)N2C1=O	–	patients with advanced solid tumours	45 mg, phase I monotherapy	–	treatment-related AST elevation incidence	20%
C[C@@H]1OC(=O)NN=C1c1ccc(-c2ccc(F)cc2)c(C(F)(F)F)c1	phase I trial, measured: Dyspnoea worst grade 2	human patients	10 mg loading then 0.5 mg daily	–	patients with adverse event	0%
CC(C)[C@@H](CN1CC[C@@](C)(c2cccc(O)c2)[C@@H](C)C1)NC(=O)[C@@]1(C)Cc2ccc(O)cc2CN1	–	rat, plasma	intraperitoneal, 5 mg/kg	–	AUCtotal	802 ng·h/mL
CC(=O)c1c(C)c2cnc(Nc3ccc(C4CCN(CCS(C)(=O)=O)CC4)cn3)nc2n(C2CCCC2)c1=O	–	human, plasma	oral, 75 mg twice daily, day 21, multiple doses, together with: letrozole	–	clearance	1660 mL/min
C[C@@H](NC(=O)N1C(=O)[C@H](Cc2ccnc(N)c2)[C@H]1C(=O)O)C1CCCCC1	–	healthy adult Chinese volunteers	continuous intravenous infusion, 0.6 mg/kg/h, 5-day infusion, CTCAE 5.0 grading	–	abnormal liver function leading to discontinuation	12.5%

A few entries again:
SMILES	test	system	conditions	scale	quantity	result
CN[C@@H](C)C(=O)N[C@H]1CN(S(=O)(=O)c2cccc(S(=O)(=O)N3CC[C@H]4CC[C@@H](C(=O)NC(c5ccccc5)c5ccccc5)N4C(=O)[C@@H](NC(=O)[C@H](C)NC)C3)c2)CC[C@H]2CC[C@@H](C(=O)NC(c3ccccc3)c3ccccc3)N2C1=O	–	patients with advanced solid tumours	45 mg, phase I monotherapy	–	treatment-related AST elevation incidence	20%
NCCCC[C@@H]1NC(=O)[C@@H](Cc2c[nH]c3ccccc23)NC(=O)[C@H](c2ccccc2)NC(=O)[C@@H]2C[C@@H](OC(=O)NCCN)CN2C(=O)[C@H](Cc2ccccc2)NC(=O)[C@H](Cc2ccc(OCc3ccccc3)cc2)NC1=O	–	healthy volunteers, male	1950 µg twice daily, 8.0 h, post hoc	–	placebo-corrected QTcF change	5.5 ms
